Measurements of several laboratories.
Parts stem from different laboratories: compare values within a part only. Several values in a cell are separate wells, animals, samples, runs or records.
Chain of UniProt Q96L34 (whole entry, looked up): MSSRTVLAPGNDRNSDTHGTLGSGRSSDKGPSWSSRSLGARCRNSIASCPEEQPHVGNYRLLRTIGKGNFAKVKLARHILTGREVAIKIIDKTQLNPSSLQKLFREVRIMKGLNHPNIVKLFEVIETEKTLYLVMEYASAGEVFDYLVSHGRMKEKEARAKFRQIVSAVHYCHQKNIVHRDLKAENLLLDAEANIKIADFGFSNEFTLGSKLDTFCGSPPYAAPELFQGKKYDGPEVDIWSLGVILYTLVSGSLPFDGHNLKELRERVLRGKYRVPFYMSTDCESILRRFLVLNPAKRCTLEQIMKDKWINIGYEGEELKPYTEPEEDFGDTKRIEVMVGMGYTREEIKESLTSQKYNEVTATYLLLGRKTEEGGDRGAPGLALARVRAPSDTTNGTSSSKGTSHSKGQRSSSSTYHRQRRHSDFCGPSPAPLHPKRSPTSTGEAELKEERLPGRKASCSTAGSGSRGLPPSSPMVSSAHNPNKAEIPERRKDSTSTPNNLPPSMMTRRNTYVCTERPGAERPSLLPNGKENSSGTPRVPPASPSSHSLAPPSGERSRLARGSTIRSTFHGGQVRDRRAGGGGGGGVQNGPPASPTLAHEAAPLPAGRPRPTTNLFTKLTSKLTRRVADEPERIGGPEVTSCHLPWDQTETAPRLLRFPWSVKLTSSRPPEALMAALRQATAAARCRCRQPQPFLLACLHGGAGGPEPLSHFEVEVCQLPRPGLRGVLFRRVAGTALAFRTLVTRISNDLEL
Chain of UniProt P53350 (whole entry, looked up): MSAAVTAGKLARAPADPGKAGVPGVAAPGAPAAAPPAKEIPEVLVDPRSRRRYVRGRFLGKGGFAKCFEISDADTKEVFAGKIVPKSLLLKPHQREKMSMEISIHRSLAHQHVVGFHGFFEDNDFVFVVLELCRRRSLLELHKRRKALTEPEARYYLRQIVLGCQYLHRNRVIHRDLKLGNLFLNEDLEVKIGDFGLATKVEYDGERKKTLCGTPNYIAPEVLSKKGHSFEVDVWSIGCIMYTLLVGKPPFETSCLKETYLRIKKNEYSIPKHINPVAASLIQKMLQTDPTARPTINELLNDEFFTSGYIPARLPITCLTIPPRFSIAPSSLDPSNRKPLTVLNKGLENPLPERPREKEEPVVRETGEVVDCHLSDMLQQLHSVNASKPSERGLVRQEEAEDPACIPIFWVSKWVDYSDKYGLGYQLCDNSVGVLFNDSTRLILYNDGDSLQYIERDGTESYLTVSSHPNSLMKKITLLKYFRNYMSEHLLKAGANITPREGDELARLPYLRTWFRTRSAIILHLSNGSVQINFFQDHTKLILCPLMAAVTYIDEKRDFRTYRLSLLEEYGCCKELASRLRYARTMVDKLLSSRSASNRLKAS
Chain of UniProt P49674 (whole entry, looked up): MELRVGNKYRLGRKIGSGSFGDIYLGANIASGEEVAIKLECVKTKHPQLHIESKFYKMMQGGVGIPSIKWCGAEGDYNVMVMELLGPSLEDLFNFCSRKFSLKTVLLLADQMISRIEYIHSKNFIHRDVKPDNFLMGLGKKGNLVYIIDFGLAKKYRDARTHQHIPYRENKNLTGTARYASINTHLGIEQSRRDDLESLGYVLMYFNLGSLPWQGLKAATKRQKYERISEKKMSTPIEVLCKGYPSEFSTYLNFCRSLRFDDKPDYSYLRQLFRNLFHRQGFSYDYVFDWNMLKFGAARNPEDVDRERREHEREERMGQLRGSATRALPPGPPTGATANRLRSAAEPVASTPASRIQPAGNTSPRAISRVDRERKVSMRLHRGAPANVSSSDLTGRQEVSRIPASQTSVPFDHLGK

Sample 1
Compound: O=C(Nc1cnn(-c2csc(C(=O)NC3COC3)c2)c1)Nc1c(F)cccc1Cl
Effect on: enzyme activity
Concentration: 5 µM
Relative to: untreated control
Endpoint: remaining activity
target = RIPK2 (Homo sapiens, UniProt O43353); value = 75.7%
target = DCLK2 (Homo sapiens, UniProt Q8N568); value = 92%
target = JAK2 (Homo sapiens, UniProt O60674); value = 88.1%
target = MARK4 (Homo sapiens, UniProt Q96L34); value = 97.9%
target = CSNK1E (Homo sapiens, UniProt P49674); value = 87.2%
target = NEK1 (Homo sapiens, UniProt Q96PY6); value = 68.7%
target = PAK3 (Homo sapiens, UniProt O75914); value = 62.4%

Sample 2
Target: Calcium/calmodulin-dependent protein kinase type II subunit alpha (CAMK2A, Homo sapiens, UniProt Q9UQM7)
Chain of UniProt Q9UQM7 (whole entry, looked up): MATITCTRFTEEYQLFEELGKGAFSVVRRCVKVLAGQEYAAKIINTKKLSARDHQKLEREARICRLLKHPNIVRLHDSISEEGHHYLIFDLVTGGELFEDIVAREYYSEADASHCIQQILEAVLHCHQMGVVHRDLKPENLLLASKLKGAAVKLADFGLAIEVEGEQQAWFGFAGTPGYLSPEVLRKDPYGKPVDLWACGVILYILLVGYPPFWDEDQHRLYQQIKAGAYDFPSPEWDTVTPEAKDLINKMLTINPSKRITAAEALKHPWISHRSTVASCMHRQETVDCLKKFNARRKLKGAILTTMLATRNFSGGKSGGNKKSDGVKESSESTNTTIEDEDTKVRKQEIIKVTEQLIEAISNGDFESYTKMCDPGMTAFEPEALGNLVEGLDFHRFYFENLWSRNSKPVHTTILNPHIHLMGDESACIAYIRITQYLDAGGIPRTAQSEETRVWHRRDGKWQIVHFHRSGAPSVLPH
Effect on: enzyme activity
Mode: inhibitor
Concentration: 10 µM
Endpoint: inhibition
SMILES = CO/N=C(\C(=O)N[C@@H]1C(=O)N2C(C(=O)O)=C(COC(N)=O)CS[C@H]12)c1ccco1; value = -15%
SMILES = CC1(C)CC[C@]2(C(=O)O)CC[C@]3(C)C(=CC[C@@H]4[C@@]5(C)CC[C@H](O)[C@@](C)(CO)[C@@H]5CC[C@]43C)[C@@H]2C1; value = -52%
SMILES = CC1=C(C(=O)OC(C)C)C(c2cccc([N+](=O)[O-])c2)C(C(=O)OC2CN(C(c3ccccc3)c3ccccc3)C2)=C(N)N1 (stereo not shown); value = -7%
SMILES = O=C1O[C@H]([C@@H](O)CO)C(O)=C1OP(=O)(O)O; value = 2%
SMILES = COc1ccc(-c2cc(=O)c3c(O)cc(O)cc3o2)cc1O; value = -9%
SMILES = COC(=O)c1c(O)cc(O)cc1O; value = -12%
SMILES = O=C(/C=C/c1ccc(O)c(O)c1)O[C@H](Cc1ccc(O)c(O)c1)C(=O)O; value = -3%
SMILES = C=C1C[C@@]23CC[C@H]4[C@@](C)(CCC[C@@]4(C)C(=O)O)[C@@H]2CC[C@]1(O[C@@H]1O[C@H](CO)[C@@H](O)[C@H](O[C@@H]2O[C@H](CO)[C@@H](O)[C@H](O)[C@H]2O)[C@H]1O[C@@H]1O[C@H](CO)[C@@H](O)[C@H](O)[C@H]1O)C3; value = -18%
SMILES = CC1(C)CC[C@]2(C(=O)O)[C@H](O)C[C@]3(C)C(=CC[C@@H]4[C@@]5(C)C[C@H](O)[C@H](O)C(CO)(CO)[C@@H]5CC[C@]43C)[C@@H]2C1; value = -30%

Sample 3
Cell line: mouse MPNST tumor cells
Method: high-content immunofluorescence imaging
Refers to: nuclear SOX9
Concentration: 10 µM
Time: 12 h
Notes: mean of 2 replicates
Relative to: DMSO control
Direction: higher = more nuclear SOX9
Endpoint: nuclear SOX9 intensity
SMILES = CNC[C@H](O)c1cccc(O)c1; value = 99.5 % of DMSO
SMILES = CC(=O)NCCCS(=O)(=O)O; value = 99.2 % of DMSO and 114 % of DMSO
SMILES = COc1cc(N)c(Cl)cc1C(=O)NC1CCN(Cc2ccccc2)CC1; value = 94.9 % of DMSO
SMILES = CC(=O)CCCCn1c(=O)c2c(ncn2C)n(C)c1=O; value = 98.7 % of DMSO
SMILES = Cc1cc(CCC[C@H](CC(=O)NO)C(=O)N[C@H](C(=O)N[C@H](C)c2ccccc2)C(C)(C)C)ccc1-c1ccccc1; value = 125 % of DMSO
SMILES = CCC(c1ccccc1)c1c(O)c2ccccc2oc1=O (stereo not shown); value = 89 % of DMSO
SMILES = CCN1CCC[C@H]1CNC(=O)c1c(O)c(Cl)cc(Cl)c1OC; value = 95.2 % of DMSO and 112 % of DMSO

Sample 4
Structure (SMILES): O=S(=O)(NC1CCC(c2cc(F)ccc2F)(S(=O)(=O)c2ccc(Cl)cc2)CC1)C(F)(F)F (stereo not shown)
Concentration: 1 µM
Endpoint: remaining binding
target = EPHA7 (Homo sapiens, UniProt Q15375); effect on = cell-free assay; method = competition with immobilised ligand; value = 100%
target = EGFR (Homo sapiens, UniProt P00533, L858R); effect on = cell-free assay; method = competition with immobilised ligand; value = 100%
target = PLK1 (Homo sapiens, UniProt P53350); effect on = cell-free assay; method = competition with immobilised ligand; value = 100%
target = DYRK1B (Homo sapiens, UniProt Q9Y463); effect on = cell-free assay; method = competition with immobilised ligand; value = 100%
target = CHUK (Homo sapiens, UniProt O15111); effect on = cell-free assay; method = competition with immobilised ligand; value = 100%
target = CSNK2A2 (Homo sapiens, UniProt P19784); effect on = cell-free assay; method = competition with immobilised ligand; value = 99%
target = CDC42BPB (Homo sapiens, UniProt Q9Y5S2); effect on = cell-free assay; method = competition with immobilised ligand; value = 100%
target = Aurora kinase C (AURKC, Homo sapiens, UniProt Q9UQB9); effect on = cell-free assay; method = competition with immobilised ligand; value = 94%
target = AAK1 (Homo sapiens, UniProt Q2M2I8); effect on = binding; value = 96%
target = MARK4 (Homo sapiens, UniProt Q96L34); effect on = cell-free assay; method = competition with immobilised ligand; value = 100%
target = Tyrosine-protein kinase ABL1, non-phosphorylated (ABL1, Homo sapiens, UniProt P00519, F317L); effect on = cell-free assay; method = competition with immobilised ligand; value = 100%
target = WEE1 (Homo sapiens, UniProt P30291); effect on = cell-free assay; method = competition with immobilised ligand; value = 90%
target = TXK (Homo sapiens, UniProt P42681); effect on = binding; method = competition with immobilised ligand; value = 99%
target = BMP2K (Homo sapiens, UniProt Q9NSY1); effect on = cell-free assay; method = competition with immobilised ligand; value = 92%
target = SRC (Homo sapiens, UniProt P12931); effect on = cell-free assay; method = competition with immobilised ligand; value = 100%
target = TAOK3 (Homo sapiens, UniProt Q9H2K8); effect on = cell-free assay; method = competition with immobilised ligand; value = 100%
target = CSNK1A1L (Homo sapiens, UniProt Q8N752); effect on = cell-free assay; method = competition with immobilised ligand; value = 100%
target = DMPK (Homo sapiens, UniProt Q09013); effect on = cell-free assay; method = competition with immobilised ligand; value = 100%
target = Ribosomal protein S6 kinase alpha-2, N-terminal kinase domain (RPS6KA2, Homo sapiens, UniProt Q15349); effect on = cell-free assay; method = competition with immobilised ligand; value = 100%
target = STK11 (Homo sapiens, UniProt Q15831); effect on = cell-free assay; method = competition with immobilised ligand; value = 100%
target = Receptor-type tyrosine-protein kinase FLT3, autoinhibited (FLT3, Homo sapiens, UniProt P36888); effect on = cell-free assay; method = competition with immobilised ligand; value = 100%
target = MAP3K4 (Homo sapiens, UniProt Q9Y6R4); effect on = cell-free assay; method = competition with immobilised ligand; value = 99%
target = MET (Homo sapiens, UniProt P08581, M1250T); effect on = cell-free assay; method = competition with immobilised ligand; value = 84%
target = STK32C (Homo sapiens, UniProt Q86UX6); effect on = cell-free assay; method = competition with immobilised ligand; value = 100%
target = CDK13 (Homo sapiens, UniProt Q14004); effect on = cell-free assay; method = competition with immobilised ligand; value = 92%

Sample 5
Target: DNA polymerase theta, ATPase domain (POLQ, Homo sapiens, UniProt O75417)
Chain of UniProt O75417 (whole entry, unmodified, looked up): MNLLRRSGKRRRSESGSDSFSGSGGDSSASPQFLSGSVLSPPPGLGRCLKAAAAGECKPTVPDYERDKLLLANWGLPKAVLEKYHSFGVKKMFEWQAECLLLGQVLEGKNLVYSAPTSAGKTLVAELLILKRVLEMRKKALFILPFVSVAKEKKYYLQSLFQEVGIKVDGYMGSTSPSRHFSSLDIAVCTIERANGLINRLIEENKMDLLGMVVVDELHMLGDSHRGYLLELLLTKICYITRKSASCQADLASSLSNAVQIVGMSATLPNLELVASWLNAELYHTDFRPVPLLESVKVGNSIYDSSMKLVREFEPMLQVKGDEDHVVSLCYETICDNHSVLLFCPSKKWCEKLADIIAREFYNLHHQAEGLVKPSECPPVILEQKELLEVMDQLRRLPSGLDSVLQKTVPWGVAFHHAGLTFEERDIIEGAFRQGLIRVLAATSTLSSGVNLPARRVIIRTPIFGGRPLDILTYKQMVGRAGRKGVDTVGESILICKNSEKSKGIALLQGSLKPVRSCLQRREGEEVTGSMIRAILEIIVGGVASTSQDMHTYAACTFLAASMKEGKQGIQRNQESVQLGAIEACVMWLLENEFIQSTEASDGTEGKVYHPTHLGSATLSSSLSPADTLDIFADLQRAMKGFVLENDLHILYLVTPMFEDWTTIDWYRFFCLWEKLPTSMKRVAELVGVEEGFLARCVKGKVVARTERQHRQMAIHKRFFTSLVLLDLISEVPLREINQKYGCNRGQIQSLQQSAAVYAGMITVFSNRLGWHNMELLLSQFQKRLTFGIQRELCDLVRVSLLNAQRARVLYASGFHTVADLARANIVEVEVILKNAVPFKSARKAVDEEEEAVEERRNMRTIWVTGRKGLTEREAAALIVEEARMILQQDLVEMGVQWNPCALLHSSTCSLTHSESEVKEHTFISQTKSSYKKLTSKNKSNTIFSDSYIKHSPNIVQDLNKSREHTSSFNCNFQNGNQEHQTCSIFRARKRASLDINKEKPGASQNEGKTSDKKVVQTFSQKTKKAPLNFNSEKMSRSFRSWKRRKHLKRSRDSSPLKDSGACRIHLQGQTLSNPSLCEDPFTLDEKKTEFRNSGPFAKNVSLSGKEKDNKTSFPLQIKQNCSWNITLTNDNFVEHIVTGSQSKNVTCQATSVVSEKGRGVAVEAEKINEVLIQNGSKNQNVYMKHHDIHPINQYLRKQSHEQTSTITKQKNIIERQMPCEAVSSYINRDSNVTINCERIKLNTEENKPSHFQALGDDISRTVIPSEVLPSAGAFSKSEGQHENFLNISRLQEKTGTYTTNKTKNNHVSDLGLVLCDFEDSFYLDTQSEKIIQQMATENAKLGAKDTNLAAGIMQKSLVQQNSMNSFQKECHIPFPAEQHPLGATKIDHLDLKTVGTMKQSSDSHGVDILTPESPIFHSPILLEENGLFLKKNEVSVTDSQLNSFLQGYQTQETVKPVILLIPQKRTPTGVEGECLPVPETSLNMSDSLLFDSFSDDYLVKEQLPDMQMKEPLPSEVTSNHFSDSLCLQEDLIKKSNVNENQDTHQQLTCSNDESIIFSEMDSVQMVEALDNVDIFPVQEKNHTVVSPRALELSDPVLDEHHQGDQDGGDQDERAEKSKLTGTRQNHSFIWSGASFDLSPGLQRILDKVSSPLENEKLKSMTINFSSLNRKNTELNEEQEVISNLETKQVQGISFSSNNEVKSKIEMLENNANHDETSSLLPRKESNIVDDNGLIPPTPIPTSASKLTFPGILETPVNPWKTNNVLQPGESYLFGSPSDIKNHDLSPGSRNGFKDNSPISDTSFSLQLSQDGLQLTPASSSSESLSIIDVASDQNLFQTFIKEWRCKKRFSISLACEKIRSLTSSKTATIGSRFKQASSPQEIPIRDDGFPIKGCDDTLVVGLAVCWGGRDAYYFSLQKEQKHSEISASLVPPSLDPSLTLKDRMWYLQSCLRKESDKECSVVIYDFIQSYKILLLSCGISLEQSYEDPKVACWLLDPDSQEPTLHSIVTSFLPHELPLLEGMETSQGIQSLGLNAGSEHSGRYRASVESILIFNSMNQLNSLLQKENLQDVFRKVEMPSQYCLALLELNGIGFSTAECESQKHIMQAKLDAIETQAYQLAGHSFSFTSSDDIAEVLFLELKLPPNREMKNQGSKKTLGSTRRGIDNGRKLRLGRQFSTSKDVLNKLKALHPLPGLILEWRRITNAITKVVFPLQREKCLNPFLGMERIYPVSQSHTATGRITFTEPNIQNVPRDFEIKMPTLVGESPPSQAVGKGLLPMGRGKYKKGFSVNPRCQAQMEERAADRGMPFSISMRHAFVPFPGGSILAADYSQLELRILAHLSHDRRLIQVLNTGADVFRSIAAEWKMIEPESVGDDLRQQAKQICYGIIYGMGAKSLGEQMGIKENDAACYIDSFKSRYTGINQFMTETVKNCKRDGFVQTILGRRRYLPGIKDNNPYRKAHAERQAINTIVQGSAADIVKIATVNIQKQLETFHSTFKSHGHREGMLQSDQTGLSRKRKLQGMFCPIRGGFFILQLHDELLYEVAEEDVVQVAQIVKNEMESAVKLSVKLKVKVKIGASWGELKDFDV
Effect on: enzyme activity
Mode: inhibitor
Concentration: 77 µM
Relative to: untreated
Endpoint: remaining activity
SMILES = NCCc1cc[nH]n1; value = 96.5%
SMILES = CC[C@]12CCCN3CCc4c(n(c5ccccc45)C(=O)C1)[C@@H]32; value = 102%
SMILES = Cc1ncc(C[n+]2csc(CCO)c2C)c(N)n1; value = 88.7%
SMILES = C=C/C(C)=C/[C@@]1(C)SC(=O)C(C)=C1O; value = 100%
SMILES = O=C(/C=C/C=C/c1ccc2c(c1)OCO2)N1CCCCC1; value = 90.8% and 93.1%
SMILES = O=C(O)c1ccccc1Nc1cccc(C(F)(F)F)c1; value = 77.8% and 76.9%
SMILES = CC[C@@]1([C@H]2O[C@H]([C@H]3O[C@@](O)(CO)[C@H](C)C[C@@H]3C)C[C@H]2C)CC[C@H]([C@@]2(C)CC[C@]3(C[C@H](O)[C@@H](C)[C@@H]([C@H](C)[C@H](OC)[C@@H](C)C(=O)O)O3)O2)O1; value = 101%
SMILES = COc1ccccc1N1CCN(CCN(C(=O)c2ccc(F)cc2)c2ccccn2)CC1; value = 101%
SMILES = Cc1ccccc1OCC(O)CO (stereo not shown); value = 110%
SMILES = CCC(C)(C)c1ccc(CC(C)CN2C[C@@H](C)O[C@@H](C)C2)cc1 (stereo partly shown); value = 101%

Repeated from above (sample 1):
target = RIPK2 (Homo sapiens, UniProt O43353); value = 75.7%
target = DCLK2 (Homo sapiens, UniProt Q8N568); value = 92%
target = JAK2 (Homo sapiens, UniProt O60674); value = 88.1%
target = MARK4 (Homo sapiens, UniProt Q96L34); value = 97.9%
target = CSNK1E (Homo sapiens, UniProt P49674); value = 87.2%
target = NEK1 (Homo sapiens, UniProt Q96PY6); value = 68.7%
target = PAK3 (Homo sapiens, UniProt O75914); value = 62.4%
